# Published values from different studies.
# Lines come from different studies, so protocols differ. “And” joins repeats or separate records; there may be more than shown. Numbers after ± are the reported error.
SMILES,assay,test system,setting,scale,measurement,value
O=C(O)CNC(=O)c1c(O)cc(CCc2ccccc2)n2ncnc12,"shake-flask, potentiometric",1-octanol/water,,,logP,3.2
C[C@@H]1CCO[C@H]2Cn3cc(C(=O)NCc4ccc(F)cc4F)c(=O)c(O)c3C(=O)N12,,"Tat+ transgenic mouse, striatum","subcutaneous osmotic pump, dose not given, 5 d",,drug concentration,5300 ± 1400 ng/g
CCc1c(-c2ccccc2)c(-c2ccccc2)nn1-c1ccccc1-c1cccc(OCC(=O)O)c1,,"Sprague-Dawley rat, large intestine","oral, 10 mg/kg, 1 h",,concentration,980 ng/g and 1220 ng/g
Cc1c(Cl)c(C)[n+]([O-])c(Cl)c1-c1noc(-c2cc(O)c(O)c([N+](=O)[O-])c2)n1,,healthy Chinese subjects,"oral, 50 mg, 10 days",,adverse drug reaction incidence,0%
O=C1CCc2ccc(OCCCCN3CCN(c4cccc(Cl)c4Cl)CC3)cc2N1,,CYP2D6 normal metabolizers,"concentration not given, genotype-based phenotype, long-acting oral or depot",,gastrointestinal symptom frequency,4.7%
C[C@@H](N)c1cc(Cl)ccc1Cn1c(=S)[nH]c(=O)c2[nH]ccc21,,human matched controls,"oral, 2.5 mg single dose",,adverse events causing discontinuation,0%
O=C(O)CSc1nnc(Br)n1-c1ccc(C2CC2)c2ccccc12,,"KM mouse, chronic hyperuricaemia model","dose not given, day 9",,body weight,31.2 g and 30.8 g and 25.4 g and 33.2 g and 25.8 g and 29.6 g
CCN(Cc1ccc(F)cc1)c1ccc(CO)c(Cl)c1,,"male F344 rat, serum","oral, 100 mg/kg/day, 2 days",,AST,587 U/L
CCc1cc(C(=O)NC)c2nccc(N3CCc4c(cc(Cn5ccnc5)cc4-c4cn(C)nc4C(F)(F)F)C3=O)c2c1,,Sprague Dawley rats,"oral, 50 mg/kg once daily, 7 days",baseline: vehicle,serum TG change,-7.6%
CCN1/C(=C/C(C)=O)Sc2ccc(F)cc21,,cynomolgus monkey,"oral, 30 mg/kg, 4 h post-dose",,PR interval,92 ± 3 ms
COc1ccc2nc(-c3ccccn3)c(N(C)c3ccc(F)cc3)n2c1,,"CD1 mouse, male, fasted, plasma","oral, 50 mg/kg, with: ABT 50 mg/kg",,MRT(0-last),1.13 h
OC[C@H]1O[C@@H](c2ccc(F)c(Cc3cc4ccccc4s3)c2)[C@H](O)[C@@H](O)[C@@H]1O,,"Japanese patients, type 1 diabetes","oral, 50 mg/day, onset day 3",baseline: patients,hypoglycaemia-related adverse event,9%
CO[C@H]1C[C@@H]2CC[C@@H](C)[C@@](O)(O2)C(=O)C(=O)N2CCCC[C@H]2C(=O)O[C@H]([C@H](C)C[C@@H]2CC[C@@H](OC(=O)NCCOCCOCCOCCOCCOCCOCCOCCOCCC(=O)N3CCc4cc(Cn5nc(-c6ccc7oc(N)nc7c6)c6c(N)ncnc65)ccc4C3)[C@H](OC)C2)C[C@@H](O)[C@H](C)/C=C(\C)[C@@H](O)[C@@H](OC)C(=O)[C@H](C)C[C@H](C)/C=C/C=C/C=C/1C,,"human patients, plasma","intravenous, 10 mg, cycle 1 day 1, 2 h infusion",,Tmax,1 h
NC1(C(=O)N[C@@H](CCO)c2ccc(Cl)cc2)CCN(c2nc[nH]c3nccc2-3)CC1,,"human, plasma","oral, 400 mg twice daily, with: enzalutamide 160 mg daily",,dose-normalised AUC(0-last),1690 ng·h/mL and 1460 ng·h/mL and 2760 ng·h/mL and 2080 ng·h/mL and 3740 ng·h/mL
CC1CCN(S(=O)(=O)c2ccc(Cl)c(C(=O)Nc3ccc(C(=O)O)cc3)c2)CC1,,octanol/buffer,"pH 11, known kinase inactives set",,logP,0.15
[18F]c1ccc(-c2ccc3c(c2)[nH]c2ccncc23)cn1,ex vivo biodistribution,"B6SJL mouse, normal, muscle","intravenous, 30 min",,SUV,0.256 ± 0.057
Cc1cc(-c2nccc3c2ccn3CC(=O)Nc2ccc(-c3cnccn3)cn2)ccn1,,human,"SAD part, single 40 mg dose",,subjects with any IMP-related TEAE,16.7%
COc1cc(Nc2ncc3c(n2)-c2ccc(Cl)cc2C(c2c(F)cccc2OC)=NC3)ccc1C(=O)O,,cancer patients,"oral, dose not given, all grades any attribution, with: pembrolizumab",,patients with respiratory failure,4%
N[C@H]1C(O)O[C@H](CO)[C@@H](O)[C@@H]1O (stereo partly shown),,aqueous solution,"20 mM, with: glucose",,osmolality,17 mOsmol/kg
O=c1oc2c(O)c(O)cc3c(=O)oc4c(O)c(O)cc1c4c23,,"broiler chickens, serum","oral, in feed, 2000 mg/kg feed, chestnut tannin diet",,detection in serum,not detected
N#Cc1ccc2c(c1)[C@H]1CCCN(C(=O)c3ccc4[nH]cnc4c3)[C@H]1C2,,human,"160 mg, day 7",,median ACTH level,6.2 pmol/L
C[C@@H](Oc1cc(-c2cnn(C3CCNCC3)c2)cnc1N)c1c(Cl)ccc(F)c1Cl,,"patients, plasma","oral, dose not given, cycle 2 day 1, with: avelumab",,"dose-normalised Cmax, median",1 ng/mL/mg
CCO[C@H]1CCN(Cc2c(OC)cc(C)c3[nH]ccc23)[C@H](c2ccc(C(=O)O)cc2)C1,,"human severe hepatic impairment, plasma","oral, 200 mg single dose, median",,total Tmax,3 h
COc1ccc2c(C)nc(Nc3nc(C)cc(O)n3)nc2c1,,octanol/buffer,"pH 11, known kinase inactives set",,logP,1.61
C[C@H]1CN(C(=O)CC#N)[C@]12CCN(c1ncnc3[nH]ccc13)C2,,healthy human,"oral, 1.5 mg, single dose",,subjects with Paraesthesia,12.5%
CNC(=O)c1ccc(-c2cnc3ncc(Cc4ccc5ncccc5c4)n3n2)cc1F,,Japanese patients,"oral, 400 mg twice daily, grade 3/4",,Tremor patients,0%
[O]=[Co].[O]=[Co][O][Co]=[O],,"Crl:CD(SD) rat female, blood","oral, 73.4 mg Co/kg/day, 90 days",,haematocrit,44.8%
O=c1c(O)c(-c2ccc(O)c(OS(=O)(=O)O)c2)oc2cc(O)cc(O)c12,,"human, cerebrospinal fluid","concentration not given, median",,CSF concentration,18.1 nM
COC(=O)/C=C/c1cc(C(=O)NCc2ccc(C)cc2)cc(-c2ccc3ncnn3c2)c1,,"mouse, plasma",37 °C,,time to below detection limit,≤ 30 min
C[C@@H](c1nc(-c2ccc(C#N)cc2)cs1)[C@](O)(Cn1cncn1)c1cc(F)ccc1F,,healthy humans,"oral, dose not given, with: ketoconazole",,adverse event Headache,0%
N[C@@H]1c2cccnc2[C@H](OC(=O)N2CCC(n3c(=O)[nH]c4ncccc43)CC2)CC[C@H]1c1cccc(F)c1F,,human,"oral, dose not given, with: fluconazole",,decrease in CL/F,42.7%
O=C(Nc1nc2cccc(-c3ccc(CN4CCS(=O)(=O)CC4)cc3)n2n1)C1CC1,measured: dyspepsia,human rheumatoid arthritis patients,"oral, 75 mg once daily, 4 weeks, regardless of relatedness",,treatment-emergent adverse events,9.1%
Cc1ccc([C@@H]2O[C@H](CO)[C@@H](O)[C@H](O)[C@H]2O)cc1Cc1ccc(-c2ccc(F)cc2)s1,,Japanese type 2 diabetes patients,"200 mg, day 18, 24 h urine collection",baseline: baseline,urinary magnesium excretion change,2.18 mg
COc1ccc2c(=O)n(C)c(-c3ccccc3)nc2c1,,"Sprague-Dawley rat, male, lung","oral, 30 mg/kg, 2 h",baseline: lung over plasma,tissue/plasma ratio,0.98
CN1CCc2ccc(C3CC3c3ccc4cc(C(=N)N)ccc4c3)cc2C1C1CCC1 (stereo not shown),,octanol/buffer,"pH 11, urokinase ligand set",,logP,> 4.5
Cn1nc2c(=O)n(C3CC3)ccc2c1[C@](O)(c1ccc(C(F)(F)F)nc1)C1CC1,,"rat Sprague-Dawley male, blood","intravenous, 1 mg/kg",,"CLint,u",0.936 L/h/kg
CCc1nc(C(N)=O)c(Nc2ccc(N3CCC(N4CCN(C)CC4)CC3)c(OC)c2)nc1NC1CCOCC1,,mouse plasma,"425 ng/mL, 22 days, -80 °C",,long-term stability accuracy,98.7%
C[C@H](Oc1ccc(Br)cc1-c1ccon1)C(=O)O,,"human, plasma","600 mg once daily, day 10",baseline: day 1,accumulation ratio (Cmax),1.01
CCCCC/C=C\C/C=C\CCCCCCCC(=O)OCC(COC(=O)CCC(OCCCCCCCC)OCCCCCCCC)COC(=O)OCCCN(CC)CC (stereo not shown),,,"pH 5.5, formulated",,zeta potential,4.31 mV
COc1ccc2c(c1)sc(-c1ccc(N(C)C)cc1)[n+]2C,,PBS,free dye,,emission maximum wavelength,484 nm
COc1ccc([C@@H](O)c2cc(-c3ncnc4cc(N5CCOCC5)ccc34)c(F)cc2Cl)nn1,,locally advanced rectal cancer patients,"100 mg, with: capecitabine and radiotherapy",,gastrointestinal disorder TEAE,100%
CC(C)n1c(Nc2cccnc2)nc2cnc(Nc3ccc(N4CCN(C)CC4)cc3)nc21,measured: oral ulcers,"healthy human, male","concentration not given, CTCAE grade 1-3",,subjects with TEAE,11.9%
O=C(COc1ccc(Cl)cc1)NC12CC(c3nnc([C@H]4C[C@@H](OC(F)(F)F)C4)o3)(C1)C2,measured: Myalgia,"healthy humans, both sexes","oral, dose not given, single ascending dose, fasted",baseline: subjects,treatment-emergent adverse events,5.6%
CC(=O)O[C@H]1C(=O)[C@@]2(C)[C@H]([C@H](OC(=O)c3ccccc3)[C@]3(O)C[C@H](OC(=O)[C@H](O)[C@@H](NC(=O)c4ccccc4)c4ccccc4)C(C)=C1C3(C)C)[C@]1(OC(C)=O)CO[C@@H]1C[C@@H]2O,measured: Pyrexia,patients with advanced solid tumours,"intravenous, dose not given, grade 1 and 2, possibly related to drug",,adverse event incidence,13%
O=C(O)c1ccc(C(=O)Nc2cc(C3CC3)n[nH]2)cc1,,octanol/buffer,pH 11,,logP,-1.3
CN[C@H](CC(C)C)C(=O)N[C@H]1C(=O)N[C@@H](CC(N)=O)C(=O)N[C@H]2C(=O)N[C@H]3C(=O)N[C@H](C(=O)N[C@H](C(=O)O)c4cc(O)cc(O)c4-c4cc3ccc4O)[C@H](O)c3ccc(c(Cl)c3)Oc3cc2cc(c3O[C@@H]2O[C@H](CO)[C@@H](O)[C@H](O)[C@H]2O[C@H]2C[C@](C)(N)[C@H](O)[C@H](C)O2)Oc2ccc(cc2Cl)[C@H]1O,,"male C57BL/6J mouse, thalamus","intracerebroventricular, 84 µg",,time to sensor saturation,≤ 120 min
CCn1cc(C(=O)N2CCOCC2)c(=O)c2cc(NC3Cc4ccccc4C3)cnc21,,"human, fed","oral suspension, 1200 mg single dose, arithmetic mean",,AUC(0-last),39.1 µg·h/mL
CNCc1ccc(-c2[nH]c3cc(F)cc4c3c2CCNC4=O)cc1,,human patients,"oral, dose not given, all grades, all doses",,incidence of malignant neoplasm progression,16.1%
COc1cccc(OC)c1CNC(=O)c1ccc2c(c1)C(=NNc1ccc(S(N)(=O)=O)cc1)C(=O)N2,,octanol/buffer,pH 11,,logP,2.39
CNC(=O)c1ccc(-c2cnc3ncc(Cc4ccc5ncccc5c4)n3n2)cc1F,,healthy human subjects,"oral, 400 mg, Diarrhea, all grades, all causality, with: rifampicin 600 mg/day",,subjects with adverse event,11.5%
CC(C)C[C@H](NC(=O)[C@H](CCC1CCCCC1)NC(=O)[C@@H]1C[C@H](C)CN1C(=O)c1ccc(F)cc1)C(=O)NC(C)(C)C(=O)N[C@@H](CC(C)C)C(=O)N[C@@H](CC(C)C)C(=O)NC(C)(C)C(=O)NC(C)(C)C(=O)NCCC(=O)N[C@@H](C)CN(C)C,circular dichroism,phosphate buffer,"pH 7.4, 20 °C",,alpha-helix content,88.9%
COc1cc([N+](=O)[O-])ccc1NC(=O)CN1CCOCC1,,octanol/buffer,pH 11,,logP,2
Cc1cc(C)c(CNC(=O)c2cc(Cl)c3c(c2C)O[C@@](C)([C@H]2CC[C@H](N(C)C)CC2)O3)c(=O)[nH]1,measured: unbound drug,human,"oral, 200 mg, cycle 1 day 15",,accumulation ratio of AUCtau,1.27
Cc1cc(NC2CCN(C(=O)OC3CCN(C(=O)/C=C/CN(C)C)C3)CC2)n2ncc(C(C)C)c2n1 (stereo not shown),"Phase I dose escalation CTCAE v4.0, measured: ALT increased",patients with advanced solid tumours,"dose not given, Total dosing grade 3 or higher",,patients with adverse event,4%
O=C1CC[C@H](N2Cc3cc(N4CCN(CC5CCN(c6ccc([C@@H]7c8ccc(O)cc8CC[C@@H]7c7ccccc7)cc6)CC5)CC4)ccc3C2=O)C(=O)N1,,cryopreserved SD rat hepatocytes,1 µM,,scaled intrinsic clearance,2.35 L/h/kg
O=C(Cc1ccc(-c2cccs2)cc1)Nc1cc(C2CC2)[nH]n1,,octanol/buffer,pH 11,,logP,4.19
CN(CC#N)C(=O)C[C@H](Nc1nc2ccccc2[nH]1)c1cccc(C(F)(F)F)c1,,human,"intravenous infusion, 1 mg/kg, 5 mg/mL formulation",,steady-state volume of distribution,38.9 ± 7.99 L
CC(C)(C(=O)N1CCOc2c(C#N)cncc2C1)C(F)F,,"human, both sexes","oral, 30 mg single dose",,subjects with dizziness TEAE,33.3%

# Some of these lines once more:
SMILES,assay,test system,setting,scale,measurement,value
CCc1nc(C(N)=O)c(Nc2ccc(N3CCC(N4CCN(C)CC4)CC3)c(OC)c2)nc1NC1CCOCC1,,mouse plasma,"425 ng/mL, 22 days, -80 °C",,long-term stability accuracy,98.7%
C[C@H](Oc1ccc(Br)cc1-c1ccon1)C(=O)O,,"human, plasma","600 mg once daily, day 10",baseline: day 1,accumulation ratio (Cmax),1.01
CCCCC/C=C\C/C=C\CCCCCCCC(=O)OCC(COC(=O)CCC(OCCCCCCCC)OCCCCCCCC)COC(=O)OCCCN(CC)CC (stereo not shown),,,"pH 5.5, formulated",,zeta potential,4.31 mV
COc1ccc2c(c1)sc(-c1ccc(N(C)C)cc1)[n+]2C,,PBS,free dye,,emission maximum wavelength,484 nm
COc1ccc([C@@H](O)c2cc(-c3ncnc4cc(N5CCOCC5)ccc34)c(F)cc2Cl)nn1,,locally advanced rectal cancer patients,"100 mg, with: capecitabine and radiotherapy",,gastrointestinal disorder TEAE,100%
